Experimental data pooled from the literature.
Protocols differ between the studies behind these lines. Numbers after ± are the reported error.
PPO3: PPO3 (Agaricus bisporus, UniProt C7FF04)
T1: DNA hairpin, hairpin, TTTT loop; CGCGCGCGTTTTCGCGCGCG
T2: dsDNA, hairpin; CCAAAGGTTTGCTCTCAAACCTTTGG

| SMILES | target | test | system | setting | how to read | quantity | result |
| --- | --- | --- | --- | --- | --- | --- | --- |
| COc1ccc(NC(=O)Cc2ccccc2)c(C)n1 | Carboxylesterase 3 (CES3, Homo sapiens, UniProt Q6UWW8) | substrate |  | 50 µM, pH 8, 37 °C, enzyme purity 3% |  | specific activity | < 1 pmol/min/µg |
| CC[C@H](C)[C@H](NC(=O)[C@H](CCCCN)NC(=O)[C@H](CCCCN)NC(=O)[C@@H](NC(=O)[C@H](CCC(=O)O)NC(=O)[C@H](CCC(=O)O)NC(=O)[C@H](CCC(=O)O)NC(=O)[C@H](CO)NC(=O)[C@H](CC(C)C)NC(=O)[C@H](CC(=O)O)NC(=O)[C@H](CC(C)C)NC(=O)[C@H](C)NC(=O)[C@H](CCCNC(=N)N)NC(=O)[C@H](CC(C)C)NC(=O)[C@H](CO)NC(=O)CNC(=O)CNC(=O)CNC(=O)CCCC[C@@H]1SC[C@@H]2NC(=O)N[C@@H]21)C(C)C)C(=O)N[C@@H](CC(C)C)C(=O)N[C@@H](CC(=O)O)C(=O)N[C@@H](CCC(=O)O)C(=O)N[C@H](C(=O)N[C@H](C(=O)N[C@@H](CCCCN)C(=O)N[C@@H](CC(=O)O)C(=O)O)C(C)C)[C@@H](C)CC | Fab B11 antibody (human) | binding, biolayer interferometry |  |  | reference: alanine mutant over wild type | Kd ratio | 110 |
| CC(C)C[C@H](NC(=O)[C@H](CC(N)=O)NC(=O)[C@H](CCCNC(=N)N)NC(=O)[C@@H](N)CS)C(=O)O | PPO3 | enzyme activity, inhibitor |  | 25 µM |  | remaining activity | 71.9% |
| COc1cc(-c2cnc3nc2NCCCNS(=O)(=O)c2cccc(c2)N3)ccc1F | EPHA5 (Homo sapiens, UniProt P54756) | differential scanning fluorimetry |  | 10 µM | higher = stronger binding | thermal shift ΔTm | 5.4 K |
| [Ru+2].[Ru+2].c1cnc2c(c1)c1nc(-c3ccc(OCCOCCOCCOCCOc4ccc(-c5nc6c7cccnc7c7ncccc7c6[nH]5)cc4)cc3)[nH]c1c1cccnc12.c1cnc2c(c1)ccc1cccnc12.c1cnc2c(c1)ccc1cccnc12.c1cnc2c(c1)ccc1cccnc12.c1cnc2c(c1)ccc1cccnc12 | T1, DNA hairpin, hairpin, TTTT loop | BLI |  | pH 7.04, K+ 100 mM |  | Kd | 3090 nM |
| O=C(O)Cc1ccc(O)cc1 | p-hydroxyphenylacetate 3-hydroxylase, reductase component (C1-hpah, Acinetobacter baumannii, UniProt Q6Q271) | ITC |  | pH 7 |  | ΔG | -6.66 ± 0.2 kcal/mol |
| CC(C)CC(NC(=O)C(NC(=O)NC(C(=O)O)C(C)C)C1CCNC(=N)N1)C(=O)NCCCNC(C(=O)O)C(OC1OC(CN)C(O)C1O)C1OC(n2ccc(=O)[nH]c2=O)C(O)C1O (stereo not shown) | mraY (Aquifex aeolicus, UniProt O66465, H325A) | ITC |  | H325A mutant |  | ΔS | -1.7 ± 2.2 cal/mol/K |
| COc1cc(F)c(C(C)C)cc1C1=C(CN2C(=O)O[C@H](c3cc(C(F)(F)F)cc(C(F)(F)F)c3)[C@@H]2C)CC(C)(C)CC1 | Cholesteryl ester transfer protein (Homo sapiens, UniProt P11597) | enzyme activity | healthy male subjects, plasma | oral, 50 mg single dose |  | time of maximum inhibition | 6.3 h |
| CC(C)n1c(-c2ccc(-c3ccc(C(=N)N)c(Cl)c3)s2)nc2cc3nc(-c4ccc(-c5ccc(C(=N)N)c(Cl)c5)s4)n(C(C)C)c3cc21 | T2, dsDNA, hairpin | SPR |  | pH 7.4, Na+ 100 mM |  | Kd | 62 nM |
| CC(C)CCC[C@@H](C)[C@H]1CC[C@H]2[C@@H]3CC=C4C[C@@H](OS(=O)(=O)O)CC[C@]4(C)[C@H]3CC[C@]12C | Prothrombin (F2, Homo sapiens, UniProt P00734) | enzyme activity, inhibitor |  | 0 (unit not given), pH 7.4, 25 °C, no Tween, with: Spectrozyme TH |  | Hill slope | 1.6 |
| CNc1ccccc1C(=O)O[C@H]1C[C@H](n2cnc3c(N)ncnc32)O[C@@H]1COP(=O)(O)OP(=O)(O)O | Unconventional myosin-Va (Gallus gallus, UniProt Q02440, D297C/G292C/I296C/S293C/V295G) | stopped-flow FRET |  | 15 °C, with: MgCl2 10 mM |  | dissociation rate constant | 3.04 ± 0.01 s⁻¹ |
| NCCCC[C@H](NC(=O)[C@H](CC(N)=O)NC(=O)[C@H](CCCCNC(=O)[C@H](Cc1ccc(B(O)O)cc1)NC(=O)[C@H](Cc1ccc(O)cc1)NC(=O)[C@@H](N)Cc1ccc(B(O)O)cc1)NC(=O)[C@H](Cc1ccc(B(O)O)cc1)NC(=O)[C@H](Cc1ccc(O)cc1)NC(=O)[C@@H](N)Cc1ccc(B(O)O)cc1)C(=O)N[C@@H](CO)C(=O)N[C@@H](Cc1ccc(O)cc1)C(N)=O | HIV-1 RRE IIB RNA | dot blot |  | with: 1000-fold excess tRNA | reference: with tRNA over without | Kd ratio | 3 fold |
| Cc1ccc2c(c1Br)C(O)(CC(=O)c1ccc3c(c1)OCO3)C(=O)N2 (stereo not shown) | UAP1 (Homo sapiens, UniProt Q16222) | surface plasmon resonance |  | concentration not given |  | binding | no binding |
| CN(C)c1ccc(/C=C2\Oc3cc(O)ccc3C2=O)cc1 | ERO1-like protein alpha (Homo sapiens, UniProt Q96HE7) | CETSA | PC-9 | 100 µM, 1 h |  | shift of aggregation temperature | ~6 ° |
| Cc1cc(N2CCC(CO)(C3CC3)C2=O)cc(C(=O)NCc2cc(F)cc(-c3cnn(C)c3)c2)n1 (stereo not shown) | Proline--tRNA ligase (Plasmodium falciparum, UniProt Q8I5R7) | thermal shift |  | with: L-proline and ATP 2 mM |  | melting temperature | 75.7 °C |
| [11CH3]Nc1ccc(-c2nc3ccc(O)cc3o2)cn1 | APP (Homo sapiens, UniProt P05067) | binding, PET, reference Logan | control subjects, posterior cingulate cortex |  | reference: cerebellum | distribution volume ratio | 1.12 ± 0.1 |
| COc1ccc(-c2cc(C(F)(F)F)nc(S(=O)(=O)CCCC(=O)Nc3c(F)cc(F)cc3Br)n2)cc1OC | AVPR2 (Homo sapiens, UniProt P30518) | cAMP accumulation, positive allosteric modulator | CHO-K1 overexpressing AVPR2 | with: vasopressin at EC20 |  | Emax | 52 ± 3.7% |
| O=C(CCn1c2ccccc2c2ccc(Cl)cc21)N(c1ccc(F)cc1)c1ccc(F)cc1 | Proteasome subunit alpha type-2/Proteasome subunit alpha type-6, 20S proteasome (Homo sapiens, UniProt P25787+P60900) | proteolysis, activator, fluorogenic peptide | purified 20S proteasome | with: Suc-LLVY-AMC, Z-LLE-AMC, Boc-LRR-AMC |  | EC200 | 0.9 ± 0.5 µM |
| Cc1ncsc1-c1ccc([C@@H]2CCCCCCNC(=O)C[C@@H]3N=C(c4ccc(cc4)OCCCCCC(=O)N[C@@H](C(C)(C)C)C(=O)N4C[C@H](O)C[C@H]4C(=O)N2)c2c(sc(C)c2C)-n2c(C)nnc23)cc1 | BRD4 (Homo sapiens, UniProt O60885) | protein degradation, degrader, immunoblotting | PC-3 | 24 h |  | hook effect onset concentration | > 60 µM |
| NCCCC[C@H](NC(=O)[C@H](CCCCN)NC(=O)[C@@H](N)CCCCN)C(=O)NCC(=O)NCC(=O)NCCCCCCCCNC(=O)COc1ccc(-c2ccccn2)cc1 | Calmodulin-1 (CALM1, Homo sapiens, UniProt P0DP23) | binding, quartz crystal microbalance |  | 25 °C, no Ca2+ |  | apparent association constant | 1e+06 ± 100000 M⁻¹ |
| [123I]c1ccc2nc(-c3ccc(-n4ccnn4)nc3)cn2c1 | Amyloid-beta precursor protein, amyloid-beta (APP, Homo sapiens, UniProt P05067) | SPECT | healthy controls, Temporal cortex | 120 to 210 min | reference: cerebellum | SUVR | 0.85 ± 0.07 |
| CC(C=CC=CC=CC1=C(C)CCCC1(C)C)=CCO | Rhodopsin, apoprotein (opsin) (RHO, Bos taurus, UniProt P02699) | regenerated pigment stability, thermal shift, BFC probe | ROS disk membranes |  |  | melting temperature | 60.9 °C |
| CC(C)C[C@H](NC(=O)[C@H](CCCNC(=N)N)NC(=O)[C@@H](N)CS)C(=O)N[C@@H](CC(N)=O)C(=O)O | PPO3 | enzyme activity, inhibitor |  | 12.5 µM |  | remaining activity | 88.6% |
| Cc1cc(=O)oc2cc(NC(=O)CCCCCCCC(=O)NO)ccc12 | HDAC8 (Homo sapiens, UniProt Q9BY41) | ITC in four buffers |  | concentration not given, pH 7.5 |  | protons released on binding | 0.31 ± 0.03 protons per ligand |
| CC(C)C[C@H](NC(=O)CNC(=O)[C@H](CC(C)C)NC(=O)[C@@H]1CCCN1C(=O)CNC(=O)[C@H](Cc1ccccc1)NC(=O)[C@H](Cc1ccccc1)NC(=O)OCC1c2ccccc2-c2ccccc21)C(=O)N[C@@H](CCCNC(=N)N)C(=O)N[C@@H](CO)C(=O)N[C@@H](CCCCN)C(=O)O | MMP9 (Homo sapiens, UniProt P14780) | substrate, HPLC |  | 500 µM, 72 h, pH 7.5, 37 °C |  | hydrolysis product | 28% |

Some of these lines once more:
| SMILES | target | test | system | setting | how to read | quantity | result |
| --- | --- | --- | --- | --- | --- | --- | --- |
| CC(C=CC=CC=CC1=C(C)CCCC1(C)C)=CCO | Rhodopsin, apoprotein (opsin) (RHO, Bos taurus, UniProt P02699) | regenerated pigment stability, thermal shift, BFC probe | ROS disk membranes |  |  | melting temperature | 60.9 °C |
| CC(C)C[C@H](NC(=O)[C@H](CCCNC(=N)N)NC(=O)[C@@H](N)CS)C(=O)N[C@@H](CC(N)=O)C(=O)O | PPO3 | enzyme activity, inhibitor |  | 12.5 µM |  | remaining activity | 88.6% |
| Cc1cc(=O)oc2cc(NC(=O)CCCCCCCC(=O)NO)ccc12 | HDAC8 (Homo sapiens, UniProt Q9BY41) | ITC in four buffers |  | concentration not given, pH 7.5 |  | protons released on binding | 0.31 ± 0.03 protons per ligand |
